Measured values collected from several papers.
Technique: steady-state kinetics
B1: ASRGL1 (Homo sapiens, UniProt Q7L266); chain 1 MNPIVVVHGGGAGPISKDRKERVHQGMVRAATVGYGILREGGSAVDAVEGAVVALEDDPEFNAGCGSVLNTNGEVEMDASIMDGKDLSAGAVSAVQCIANPIKLARLVMEKTPHCFLTDQGAAQFAAAMGVPEIPGEKLVTERNKKRLEKEKHEKGAQKTDCQKNLG; chain 2 TVGAVALDCKGNVAYATSTGGIVNKMVGRVGDSPCLGAGGYADNDIGAVSTTGHGESILKVNLARLTLFHIEQGKTVEEAADLSLGYMKSRVKGLGGLIVVSKTGDWVAKWTSTSMPWAAAKDGKLHFGIDPDDTTITDLP
B2: ycjS (Escherichia coli, UniProt P77503); chain MKSAMTSSPLRVAIIGAGQVADKVHASYYCTRNDLELVAVCDSRLSQAQALAEKYGNASVWDDPQAMLLAVKPDVVSVCSPNRFHYEHTLMALEAGCHVMCEKPPAMTPEQAREMCDTARKLGKVLAYDFHHRFALDTQQLREQVTNGVLGEIYVTTARALRRCGVPGWGVFTNKELQGGGPLIDIGIHMLDAAMYVLGFPAVKSVNAHSFQKIGTQKSCGQFGEWDPATYSVEDSLFGTIEFHNGGILWLETSFALNIREQSIMNVSFCGDKAGATLFPAHIYTDNNGELMTLMQREIADDNRHLRSMEAFINHVQGKPVMIADAEQGYIIQQLVAALYQSAETGTRVEL
B3: LYPLA1 (Homo sapiens, UniProt O75608); chain MCGNNMSTPLPAIVPAARKATAAVIFLHGLGDTGHGWAEAFAGIRSSHIKYICPHAPVRPVTLNMNVAMPSWFDIIGLSPDSQEDESGIKQAAENIKALIDQEVKNGIPSNRIILGGFSQGGALSLYTALTTQQKLAGVTALSCWLPLRASFPQGPIGGANRDISILQCHGDCDPLVPLMFGSLTVEKLKTLVNPANVTFKTYEGMMHSSCQQEMMDVKQFIDKLLPPID
B4: carbamoyl phosphate synthetase large subunit L720E (Escherichia coli, UniProt P00968); chain PKRTDIKSILILGAGPIVIGQACEFDYSGAQACKALREEGYRVILVNSNPATIMTDPEMADATYIEPIHWEVVRKIIEKERPDAVLPTMGGQTALNCALELERQGVLEEFGVTMIGATADAIDKAEDRRRFDVAMKKIGLETARSGIAHTMEEALAVAADVGFPCIIRPSFTMGGSGGGIAYNREEFEEICARGLDLSPTKELLIDESLIGWKEYEMEVVRDKNDNCIIVCSIENFDAMGIHTGDSITVAPAQTLTDKEYQIMRNASMAVLREIGVETGGSNVQFAVNPKNGRLIVIEMNPRVSRSSALASKATGFPIAKVAAKLAVGYTLDELMNDITGGRTPASFEPSIDYVVTKIPRFNFEKFAGANDRLTTQMKSVGEVMAIGRTQQESLQKALRGLEVGATGFDPKVSLDDPEALTKIRRELKDAGADRIWYIADAFRAGLSVDGVFNLTNIDRWFLVQIEELVRLEEKVAEVGITGLNADFLRQLKRKGFADARLAKLAGVREAEIRKLRDQYDLHPVYKRVDTCAAEFATDTAYMYSTYEEECEANPSTDREKIMVLGGGPNRIGQGIEFDYCCVHASLALREDGYETIMVNCNPETVSTDYDTSDRLYFEPVTLEDVLEIVRIEKPKGVIVQYGGQTPLKLARALEAAGVPVIGTSPDAIDRAEDRERFQHAVERLKLKQPANATVTAIEMAVEKAKEIGYPLVVRPSYVEGGRAMEIVYDEADLRRYFQTAVSVSNDAPVLLDHFLDDAVEVDVDAICDGEMVLIGGIMEHIEQAGVHSGDSACSLPAYTLSQEIQDVMRQQVQKLAFELQVRGLMNVQFAVKNNEVYLIEVNPRAARTVPFVSKATGVPLAKVAARVMAGKSLAEQGVTKEVIPPYYSVKEVVLPFNKFPGVDPLLGPEMRSTGEVMGVGRTFAEAFAKAQLGSNSTMKKHGRALLSVREGDKERVVDLAAKLLKQGFELDATHGTAIVLGEAGINPRLVNKVHEGRPHIQDRIKNGEYTYIINTTSGRRAIEDSRVIRRSALQYKVHYDTTLNGGFATAMALNADATEKVISVQEMHAQIK
B5: enzyme (Triticum aestivum, UniProt A0A6J4BJM5); chain MPATQLPAGEAWDRRRELQAFDDTKAGVKGLVDAGVTALPPIFRHSPESLEGITSSNHVTGAIPTVDLSAARREDTVALVRRAAGTVGFFQVVNHGVPAELMAGMLEGVRRFNEGPAEAKQAIYSRDQARKVRFASNFDLFSSAAANWRDTLFFHLAPDPAPSQELPEAVRDVVTEYGKAVTKVALSVLELLSESLGLSSDHLRDMGCAENLNAVCQYYPPCPEPYLTWGTKRHTDPGFLTVLLQDGMGGLQVLVDHKTWVDVPPVPGAFIINIGDLLQLVSNDQFRSVEHRVLANKSKDTARVSVASFFNTDMERSTRLYGPITDGRNPPIYRSVTARDFIATFNRIGLDGRSLDHYRLDQHTPTPAVEGCE
B6: protein (Planktothrix agardhii, UniProt F5B6Z0); chain MIVNVIQKDRLKEQKLQFIRNHQQAFDVEPIYPLPLFEDFVTSIEGDCSLEASCKIESDKLIASRFLLFFEDKTQEWQKYLHQSLTFFGLVENRVGVKINYSLLQQFLGSSFDFSKVTVLSAGIDLRNNLAESSLKMHIRIKDYPEKLDKAFALSDGAADGNYLKDFVNLIGFDFYFNGKSEIEIYAEVQEDDFFKPEINNLVWQHFPKTALQPLKASSLFFTGLSKANNNPVLYYHLKNRQDLTNYFKLNDTAQRVHSFYQHQDILPYMWVGTAQKELEKTRIENIRLYYYKSFKMESN
B7: BH1128 (Halalkalibacterium halodurans, UniProt Q9KDT3); chain SLKQQTGREQWASRLGFILAAMGSAVGLGNIWRFSYVTGENGGAAFLLVYLGFIALIGIPIVLAEFTIGRRAQSDAVGSFEKLAPGKPWKVAGLMGVAAGFLILSFYGVIAGWILFYLFNYITGQLWSAPAEGFGGFFEGFIANPTLPLFWQALFMIATIWIVAIGVKKGIERSNKILMPLLGVLLIALAIYSLTLGGAKEGLAFLFSPDWSALKDPGVYLAAISQAFFTLSLGMGALITYGSYVSKDSRLPGAAVSVAGLDTAFAIIAGIMIFPAVFALGLSPSGGPGLVFVVLPDIFDSIRLGPIVGIAFFILLGAAALSSAVSLLEVPVAYFMRKFDWSRKQAAITLGVIITLLGIPSSLSFGVLGEVTIIPGLNIFDSVDFIASSVFLPLGGMIIALFIGWGWKTSDALAESDLTDSVWGKLWILSLRFIAPIAILIVFLSAFQIFFN
B8: engA (Bacillus subtilis, UniProt P50743); chain MGKPVVAIVGRPNVGKSTIFNRIAGERISIVEDTPGVTRDRIYSSAEWLNYDFNLIDTGGIDIGDEPFLAQIRQQAEIAMDEADVIIFMVNGREGVTAADEEVAKILYRTKKPVVLAVNKLDNTEMRANIYDFYSLGFGEPYPISGTHGLGLGDLLDAVAEHFKNIPETKYNEEVIQFCLIGRPNVGKSSLVNAMLGEERVIVSNVAGTTRDAVDTSFTYNQQEFVIVDTAGMRKKGKVYETTEKYSVLRALKAIDRSEVVAVVLDGEEGIIEQDKRIAGYAHEAGKAVVIVVNKWDAVDKDESTMKEFEENIRDHFQFLDYAPILFMSALTKKRIHTLMPAIIKASENHSLRVQTNVLNDVIMDAVAMNPTPTHNGSRLKIYYATQVSVKPPSFVVFVNDPELMHFSYERFLENRIRDAFGFEGTPIKIFARARK
UniProt Q8QZR1, sequence (whole entry, looked up): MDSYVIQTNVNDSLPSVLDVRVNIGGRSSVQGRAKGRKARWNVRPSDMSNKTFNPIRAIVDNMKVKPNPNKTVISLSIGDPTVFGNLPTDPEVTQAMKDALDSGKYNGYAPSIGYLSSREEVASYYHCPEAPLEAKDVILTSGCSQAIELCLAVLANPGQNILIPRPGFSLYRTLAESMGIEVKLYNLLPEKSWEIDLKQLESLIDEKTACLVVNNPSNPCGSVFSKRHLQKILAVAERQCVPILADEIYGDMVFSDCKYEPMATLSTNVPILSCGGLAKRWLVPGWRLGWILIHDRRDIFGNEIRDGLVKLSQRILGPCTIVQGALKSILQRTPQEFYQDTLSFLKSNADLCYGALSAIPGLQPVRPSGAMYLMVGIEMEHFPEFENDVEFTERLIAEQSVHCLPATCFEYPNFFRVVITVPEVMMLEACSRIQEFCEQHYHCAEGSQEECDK
UniProt Q6WZB0, sequence (whole entry, looked up): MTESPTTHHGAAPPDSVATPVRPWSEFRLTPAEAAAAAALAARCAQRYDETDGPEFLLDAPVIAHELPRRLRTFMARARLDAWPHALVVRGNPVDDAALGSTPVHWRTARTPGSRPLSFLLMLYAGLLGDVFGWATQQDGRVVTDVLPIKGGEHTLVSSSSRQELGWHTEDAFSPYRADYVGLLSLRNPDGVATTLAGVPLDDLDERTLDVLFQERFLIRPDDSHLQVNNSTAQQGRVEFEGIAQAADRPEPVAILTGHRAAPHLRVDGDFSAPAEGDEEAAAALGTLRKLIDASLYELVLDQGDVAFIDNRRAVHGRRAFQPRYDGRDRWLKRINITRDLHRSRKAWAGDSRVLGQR
UniProt P09950, sequence (whole entry, unmodified, looked up): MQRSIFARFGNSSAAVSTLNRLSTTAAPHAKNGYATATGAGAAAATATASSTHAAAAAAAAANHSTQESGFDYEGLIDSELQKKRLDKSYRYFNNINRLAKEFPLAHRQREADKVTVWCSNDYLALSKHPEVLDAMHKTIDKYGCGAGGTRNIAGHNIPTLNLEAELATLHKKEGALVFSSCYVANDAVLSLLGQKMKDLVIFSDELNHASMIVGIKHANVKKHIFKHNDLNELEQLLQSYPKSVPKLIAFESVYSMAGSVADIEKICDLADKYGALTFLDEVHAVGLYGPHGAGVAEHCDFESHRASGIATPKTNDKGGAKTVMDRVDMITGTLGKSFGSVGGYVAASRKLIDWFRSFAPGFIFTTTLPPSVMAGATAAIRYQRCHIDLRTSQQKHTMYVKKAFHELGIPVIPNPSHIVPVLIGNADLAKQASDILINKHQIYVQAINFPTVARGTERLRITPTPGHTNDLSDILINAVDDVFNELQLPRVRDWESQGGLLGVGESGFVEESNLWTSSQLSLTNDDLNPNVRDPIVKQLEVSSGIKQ
UniProt P27306, sequence (whole entry, looked up): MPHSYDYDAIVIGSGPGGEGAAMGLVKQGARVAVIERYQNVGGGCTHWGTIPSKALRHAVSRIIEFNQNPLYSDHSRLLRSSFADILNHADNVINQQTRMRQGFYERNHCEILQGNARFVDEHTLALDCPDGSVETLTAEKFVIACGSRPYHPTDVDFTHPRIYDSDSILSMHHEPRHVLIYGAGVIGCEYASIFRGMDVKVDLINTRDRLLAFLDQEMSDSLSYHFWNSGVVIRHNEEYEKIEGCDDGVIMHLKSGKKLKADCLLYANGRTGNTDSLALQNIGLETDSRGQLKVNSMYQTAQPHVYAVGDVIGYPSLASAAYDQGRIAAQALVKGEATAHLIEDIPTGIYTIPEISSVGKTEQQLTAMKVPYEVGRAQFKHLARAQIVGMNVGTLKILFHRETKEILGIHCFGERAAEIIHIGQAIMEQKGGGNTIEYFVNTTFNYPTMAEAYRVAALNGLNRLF

| Substance | substrate | pH | temperature | setting | added | Km |
| --- | --- | --- | --- | --- | --- | --- |
| HEM1 (Saccharomyces cerevisiae, UniProt P09950) | CC(C)(COP(=O)(O)OP(=O)(O)OC[C@H]1O[C@@H](n2cnc3c(N)ncnc32)[C@H](O)[C@@H]1OP(=O)(O)O)[C@@H](O)C(=O)NCCC(=O)NCCSC(=O)CCC(=O)O | pH 7.4 | 30 °C | – | – | 33 µM |
| B1 (ASRGL1) | CC(C)C[C@H](NC(=O)C[C@H](N)C(=O)O)C(=O)O | pH 7.4 | 37 °C | NaCl 100 mM | – | 1200 µM |
| vioC (Streptomyces vinaceus, UniProt Q6WZB0) | N=C(N)NOCC[C@H](N)C(=O)O | pH 8 | 30 °C | – | alpha-ketoglutarate 1.0 mM | 1160 µM |
| B2 (ycjS) | CO[C@@H]1O[C@H](CO)[C@@H](O)[C@H](O)[C@H]1O | pH 8 | 30 °C | – | NAD+ 2.0 mM | 2000 µM |
| B3 (LYPLA1) | CN(C)c1ccc(/N=N/c2ccc(C(=O)NCCCn3cc(CCCCCCCCCCCCCCCC(=O)OC[C@H](NC(=O)c4cc5ccc(O)cc5oc4=O)C(=O)N4CCOCC4)nn3)cc2)cc1 | pH 7.4 | 37 °C | – | – | 19.1 µM |
| B4 | Nc1ncnc2c1ncn2[C@@H]1O[C@H](COP(=O)(O)OP(=O)(O)OP(=O)(O)O)[C@@H](O)[C@H]1O | pH 7.6 | – | KCl 100 mM | glutamine 10 mM, ornithine 10 mM | 1700 µM |
| sthA (Escherichia coli, UniProt P27306) | NC(=O)C1=CN([C@@H]2O[C@H](COP(=O)(O)OP(=O)(O)OC[C@H]3O[C@@H](n4cnc5c(N)ncnc54)[C@H](OP(=O)(O)O)[C@@H]3O)[C@@H](O)[C@H]2O)C=CC1 | pH 7.5 | 37 °C | NaCl 150 mM | thio-NAD+ 200 µM | 32 µM |
| protein (Candidatus Protochlamydia amoebophila, UniProt A0A2P9HA01) | Nc1ncnc2c1ncn2[C@@H]1O[C@H](COP(=O)(O)OP(=O)(O)O)[C@@H](O)[C@H]1O | pH 7 | 30 °C | transporter, labelled substrate, apparent, not purified | – | 273 µM |
| B5 (enzyme) | O=C1[C@@H](O[C@@H]2O[C@H](CO)[C@@H](O)[C@H](O)[C@H]2O)Oc2ccccc2N1O | pH 7.2 | 30 °C | – | – | 217 µM |
| B6 (protein) | CC(C)=CCOP(=O)(O)OP(=O)(O)O | – | – | – | tri-Tyr peptide acceptor | 270 µM |
| B7 (BH1128) | N[C@@H](Cc1c[nH]c2ccccc12)C(=O)O | pH 8.5 | 22 °C | NaCl 50 mM | Na+ gradient, valinomycin 1 µM | 1.7 µM |
| B8 (engA) | Nc1nc2c(ncn2[C@@H]2O[C@H](COP(=O)(O)OP(=O)(O)OP(=O)(O)O)[C@@H](O)[C@H]2O)c(=O)[nH]1 | pH 7.5 | 37 °C | KCl 200 mM, free enzyme, apparent | GTP 0-1 mM | 199 µM |
| Tat (Mus musculus, UniProt Q8QZR1) | N[C@@H](CCC(=O)O)C(=O)O | pH 7 | 38 °C | – | PLP | 4900 µM |
